Measured values pooled from the literature.
Compare with care: the assays were run in different laboratories. Values joined by “and” are separate records of one study, mostly repeats; a detail may differ. Numbers after ± are the reported error.

CN(C)c1ncnc2nc[nH]c12  inhibition (THP-1; pyroptotic LDH release; 2 µM, 40 min, added: LPS then nigericin): 7.15%
COc1ncnn2ccc(-c3cnc4nc(C)n(Cc5nnc([C@@H](C)F)o5)c4c3)c12  overall response rate (Homo sapiens, relapsed or refractory AML or MDS; dose not given, splicing factor mutation-negative): 42.9%
COc1ccc(-c2cncc(N[C@@H](C)c3cccc(NC(=O)c4cncc(C)c4)c3)n2)cc1OC  delta delta Ct (measured: rno-miR-141-3p; rat SU5416/hypoxia model, lung; dose not given, unit not given; reference: SU5416/hypoxia vehicle): -0.884
N#Cc1ccn2c(-c3ccncc3)c(-c3ccc(F)cc3)nc2c1  log2 fold change (kinase binding, competitor, MIB/MS competition, measured: IKS1; Candida albicans cell lysate; 1 µM; reference: DMSO): 0.0194
CSCCNc1nc(SCCC(F)(F)F)nc2c1ncn2[C@@H]1O[C@H](COP(=O)(O)OP(=O)(O)C(Cl)(Cl)P(=O)(O)O)[C@@H](O)[C@H]1O  patients with IPA above 80% (light transmittance aggregometry; human patients, platelet-rich plasma; dose not given, 3 h, added: ADP 5 µM; reference: patients): 2.6%
Oc1ccc(Br)cc1C=NCCN1CCOCC1  inhibition (superoxide scavenging; 200 µM): 41.1%
NCC(=O)Nc1cncc(-c2nn3c(=O)cc(N4CCNCC4)nc3s2)c1  inhibition (ADP-induced platelet aggregation, light transmission aggregometry; human, stable CAD on aspirin, ex vivo platelets; subcutaneous, 0.04 mg/kg, 240 min post-dose, mean value, added: ADP 20 µM): 0%
CC1(C)CCC(c2ccc(Cl)cc2)=C(CN2CCN(c3ccc(C(=O)NS(=O)(=O)c4ccc(N[C@H](CCN5CCOCC5)CSc5ccccc5)c(S(=O)(=O)C(F)(F)F)c4)cc3)CC2)C1  EC50 (cell kill; primary neoplastic T lymphocytes, dog 17; 24 h, T-cell CLL): 63 nM
COc1cc(-c2ccccc2)ncc1C(=O)Nc1ccc2c(=O)[nH]c(-c3ccc(C(C)(C)O)cc3)nc2c1  normalized enrichment score (RNA-seq GSEA, measured: FALLER_ENTEROCYTE_MOUSE; organoids, small intestinal, Apc Q1405X, mouse; dose not given, 3 days, knockout organoids; reference: DMSO, direction not given): 2.98
CN[C@@H]1COc2c(S(=O)(=O)NC(=O)Nc3c4c(cc5c3CCC5)CCC4)cnn2C1  inhibition (measured: IL-18; human participants, whole blood ex vivo; 300 mg twice daily, multiple doses, 145 h, IL-18, circulating, adjusted for, added: LPS/ATP; reference: baseline): 93.5%
O=C(O)CNC(=O)Cc1ccccc1  sarcomere length (ventricular cardiomyocytes, C57BL/6 mouse; dose not given, 0.812 s): 1.67 µm
Cc1n[nH]c2ccc(-c3cc(OC[C@@H](N)Cc4ccccc4)cnc3-c3ccoc3)cc12  log2 fold change (kinase binding, competitor, MIB/MS competition, measured: TPK2; Candida albicans cell lysate; 1 µM; reference: DMSO): 0.0369
CC(C)NCC(O)c1ccc(O)c(O)c1 (stereo not shown)  sarcomere length (ventricular cardiomyocytes, C57BL/6 mouse; dose not given, 0.368 s): 1.72 µm
O=C(COc1ccc(Cl)cc1)NC12CC(c3nnc([C@H]4C[C@@H](OC(F)(F)F)C4)o3)(C1)C2  protein level change (measured: ATF4; PBMC ex vivo stimulated, human ALS patients; 200 mg, D7 predose; reference: baseline): -80.1%
O=c1cc(-c2ccc(O)cc2)oc2c([C@@H]3OC[C@H](O)[C@H](O)[C@H]3O)c(O)c([C@@H]3O[C@H](CO)[C@@H](O)[C@H](O)[C@H]3O)c(O)c12  E/E′ ratio (HFpEF mice; oral, 20 and 40 mg/kg/day): decreased
c1ccc(-c2n[nH]cc2-c2ccnc3ccccc23)nc1  log2 fold change (kinase binding, competitor, MIB/MS competition, measured: CEK1; Candida albicans cell lysate; 100 nM; reference: DMSO): 1.22
Cc1cc(F)cc2c(CCC(=O)N[C@@H]3C(=O)NC[C@H]3O)c(-c3ccc(F)cc3)[nH]c12  reduction (proteinuria, measured: UACR AUC(0-48 h); APOL1 G2 multicopy mice; oral, 30 mg/kg twice daily, added: IFNγ intraperitoneal; reference: vehicle): 95%
CC(C)[C@H](C(=O)Nc1ccc(C(=O)NO)cc1)c1ccccc1  tumour growth rate (volumetric MRI; human, right C1 intradural meningioma; dose not given, day 809): 10 %/year
CC[C@@H](C)[C@@H](NC(=O)[C@@H](Cc1ccc(O)cc1)NC(=O)[C@H]1CCCN1C(=O)[C@@H](CCCNC(=N)N)NC(=O)[C@H](N)Cc1c[nH]cn1)C(=O)N[C@H](C)C(=O)N[C@H](Cc1c[nH]cn1)C(=O)N[C@H](CCCNC(=N)N)C(=O)N[C@@H](C(=O)N[C@H](Cc1ccc(O)cc1)C(=O)N[C@H](CO)C(=O)N[C@H](Cc1ccccc1)C(N)=O)C(C)C  IFN-γ+ CD8+ T cells (ex vivo flow cytometry; MC-38 tumour-bearing mice, spleen; dose not given; reference: CD8+ T cells): 3.7% and 4.98% and 5.96% and 5.99%
N=C(N)NCCC[C@H](NC(=O)[C@H](CCCNC(=N)N)NC(=O)[C@H](CCCCN)NC(=O)[C@H](CCC(N)=O)NC(=O)[C@H](CCCCN)NC(=O)[C@H](Cc1ccc(O)cc1)NC(=O)[C@@H](N)CCCCN)C(=O)N[C@@H](CO)C(=O)N[C@@H](Cc1ccc(O)cc1)C(=O)N[C@@H](CCCCN)C(=O)O  median change in Schiff score (human, dentin hypersensitivity patients; topical to tooth, 5 µg/tooth repeated, day 36, phase 1/2a trial; direction not given): -1
Cc1cc([C@H]2C[C@H]3[C@@H](CF)SC(N)=N[C@@]3(c3ccc(F)cc3F)CO2)on1  Aβ42 level (measured: Aβx-42; Mus musculus wild-type, brain; subcutaneous, 30 mg/kg, 5 h): 0.52 ng/g
O=c1ccn([C@@H]2O[C@H](COP(=O)(O)O)[C@@H](O)[C@H]2O)c(=O)[nH]1  inhibition (THP-1; pyroptotic LDH release; 2 µM, 40 min, added: LPS then nigericin): 22.4%
C[C@H]1C[C@H]2CSC(N)=N[C@@]2(c2nc(NC(=O)c3ccc(OC(F)F)cn3)cs2)CO1  percent change from baseline (measured: Aβx-40; healthy adults, plasma; 40 mg single dose, 48 h post-dose; reference: placebo): -38.8%
OC(CCN1CCCCC1)(c1ccccc1)C1CC2C=CC1C2 (stereo not shown)  EEG Beta3-power Fz-Cz (resting-state EEG; healthy elderly humans; oral, 4 mg, eyes open, LS mean): 2 µV²
CCN1CCN(Cc2ccc(Nc3ncc(F)c(-c4cc(F)c5nc6n(c5c4)[C@H](C)CCC6)n3)nc2)CC1  median progression-free survival (human advanced solid tumours; 300 mg, phase Ia monotherapy RECIST 1.1): 7.3 months
CCCn1cc(C)c2c(=O)[nH]c(-c3cc(S(=O)(=O)N4CCN(CC)CC4)ccc3OCC)nc21  change in DBP AUEC(0-4 h) (supine; concentration not given, 0 to 4 h; reference: baseline): -12.7 ± 13.5 mmHg·h
C[C@H]1O[C@@H](O[C@H]2CC[C@@]3(C)[C@@H](CC[C@]4(C)[C@@H]3C=C[C@]35OC[C@@]6(CCC(C)(C)C[C@H]63)[C@@H](O)C[C@]54C)[C@]2(C)CO)[C@H](O)[C@@H](O[C@@H]2O[C@H](CO)[C@@H](O)[C@H](O)[C@H]2O)[C@H]1O  liver index (chronic-plus-binge ethanol-fed mice; oral, 10 mg/kg/day, 7 d; reference: body weight): 3.56% and 3.83% and 4.02% and 4.59% and 4.41% and 4.35%
O=C(OC(C(F)(F)F)C(F)(F)F)N1CCN(Cc2cccc(Oc3ccccc3)c2)CC1  k4 (PET blocking study; rhesus monkey, brain Pons; 0.3 mg/kg, compound pretreatment, added: [18F]T-401 tracer): 0.294 min⁻¹

Some of these lines once more:
O=C(O)CNC(=O)Cc1ccccc1  sarcomere length (ventricular cardiomyocytes, C57BL/6 mouse; dose not given, 0.812 s): 1.67 µm
Cc1n[nH]c2ccc(-c3cc(OC[C@@H](N)Cc4ccccc4)cnc3-c3ccoc3)cc12  log2 fold change (kinase binding, competitor, MIB/MS competition, measured: TPK2; Candida albicans cell lysate; 1 µM; reference: DMSO): 0.0369
